# Results from different studies.
# Each numbered part is a random draw from the data of one study; scales do not carry over between parts.

# Sample 1
# Target: RNA binding protein fox-1 homolog 2, RRM domain, GST-SBP tag (RBFOX2, Homo sapiens, UniProt O43251-10, residues 100-194)
# Technique: RNA Bind-n-Seq
# Form: RNA
# Medium: in vitro
# Tested at: 365 nM
# Notes: natural RNA segment, single round, ends assumed
# Reference: no-protein control
# Reading: higher = stronger binding
# Constant ends, left off below: GGGAGUUCUACAGUCCGACGAUC … UGGAAUUCUCGGGUGCCAA
# Target sequence (chain): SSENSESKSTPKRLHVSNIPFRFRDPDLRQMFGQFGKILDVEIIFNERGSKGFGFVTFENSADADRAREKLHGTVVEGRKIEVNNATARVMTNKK
Oligonucleotide,RBNS enrichment (R)
CUCACAACACCACACCUGGCAAAUUUGAUUUUUUUUUUUUUUCCAGAGACGGGGUCUCGCAACAUUGCCCAGACUUCCUUUGUGUUAGUUAAUAAAGCUUUCUCAACUGC,0.35
CCCUGUUAAUCUCCUUUUUUCUUGGAUUGGAGAGGAGAGAAUCUGGACAUGGCUUUGGACUUGGAGGAUAUCUUGGAUUGGAUUGCACAAUGGCUUAAAUUCUUGAUUCU,0.891
UUUGUAUAUCAAAUUUCCAUUGUCAUUAAAAACUGUAUCUUGAAACUUUGUGAACUGACUUGCUGUAUUUGCACUUUGAGCUCUUGAAAUAAAUGUGAUUUUUGUGUGAU,2.65
AAAGGGACCUUCAAAGUGAAGACUGCCUUGUCCCGCAGCUCCUUCUGGCUUAGAUUGAAAAAUGGGCUUCCUAAUGGGUUAAAUCCUUUAAAACAAGGAGUUGUGGGGGA,0.262
GUUCCUGGUGCCUUCUGAUGGGGCUGGAAUAGUUGAGGUGGAUGGUUCUACCCUUUCUGCCUUCUGUUUGGGACCCAGCUGGUGUUCUUUGGUUUGCUUUCUUCAGGCUC,0.279
GAUGAUUCUCCCAAAAAGCAGAAAAAGAAAUGUCAGGUUAGAAGGACCCAAGUUCUAGGUGCACACUUUUGCAAGCUUCCUACAAGCCCAGACUGACUUACACUAACCUA,0.871
UUGUUUAAACGCAAAGCUUUGUAAAAGCCACAAGGUCUGAGCUGAACCCCUCCUUUUUGAACUUACUGUGACAAGCACAGGAACGGUCAGAAACUGGGCUCAUCACACCA,0.297
AUUCAGCUACUCAGAUAAAUUCAGAAUGGGUCAAGGCACCUGCCUGUUUUUGUUGGUGCACAGAGAUUGACUUGAUUCAGAGAGACAAUUCACUCCAUCCCUAUGGCAGA,0.498

# Sample 2
# Target: Hepatocyte nuclear factor 3-alpha (Foxa1, Mus musculus, UniProt P35582, residues 1-468, full length assumed)
# Technique: EMSA with sequencing
# Form: double-stranded DNA, one strand shown
# Medium: in vitro
# Tested at: 10 and 20 nM
# Notes: whole designed probe, mean of two concentrations, ends assumed
# Reference: negative control set to 0
# Reading: higher = stronger binding
# Constant ends, left off below: GTGAGCGGTGCCCATTGATGGGGAAC … TTTCACTGGGATCGTGGGGAC
# Residues (chain): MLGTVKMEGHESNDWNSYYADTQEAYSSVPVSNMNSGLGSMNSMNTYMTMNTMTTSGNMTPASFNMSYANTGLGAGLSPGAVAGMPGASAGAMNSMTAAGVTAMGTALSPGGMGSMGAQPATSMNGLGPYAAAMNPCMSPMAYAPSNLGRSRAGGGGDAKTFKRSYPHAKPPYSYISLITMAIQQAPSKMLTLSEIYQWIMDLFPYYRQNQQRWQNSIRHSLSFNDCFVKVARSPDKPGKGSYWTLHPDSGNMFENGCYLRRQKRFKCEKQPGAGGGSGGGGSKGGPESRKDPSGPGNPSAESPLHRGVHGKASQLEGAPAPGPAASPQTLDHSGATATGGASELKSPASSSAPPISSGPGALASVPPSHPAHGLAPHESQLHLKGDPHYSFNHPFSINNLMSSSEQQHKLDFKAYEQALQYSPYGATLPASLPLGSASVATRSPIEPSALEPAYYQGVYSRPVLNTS
Oligonucleotide,normalised bound fraction
ATACACAGCAGAGAAGTCACATCCTAGTTACTCTCACTTTCTACCTTGTATTACTACTTTTCGTACCCCTAGCTTATTGCTATTAGTACAATGTAAACAGGGAGTTCACACACACATACCCCTGGTCTAAGAAGAATAAAAAATGAAGGAGATTTCTGTTTGTATAGAAAACAGAAGTCACCTTGACTTTTAT,0.377 ratio
GCCTAGTGCACATCCCAGCCCTGCCTCCTGCCCCGCCTGCACGCCATGAGTGCTGAAGTCATGCCTGGCAGGGGCTGCTGGCCCAGGCCCAGAGTAATCTCACTGCGCTGAGCTCGCTGGTGTGCTGCTGGATGCTGATGAGCTTGAGGAGTGTGGGAAGTGAGCATGGGGCTGAGTAGAGATGCGGCAGGCC,-0.0909 ratio
GAAGGAAATAATGGAGCCAACCATGCATATAACCTCAGGGAGAACATTCTAGGTAGAGGGAACAGCAAGTGCAAAGGCCCTGAAGTGGGGGTTTGTTTACCTTCTGCACACAGGCCAGTAGTTGCACAATCAATTGGAATGGATGGGAAATGTAAAAGAGAGAAGTTGAAAAGGCCAGGTGCAGTGGCTCATG,0.426 ratio
TAAGAAAGTAATAAACTAGGCTTGCCCTGGCAGTCATATTGTAATGGAACGCAGATACCTCATTGTGTGTGAATTTGAAATTAAAAAACAAAGTAATCTTGGTGAGCTGCTACCATTGCTGCCCCCTCCCTGCCTTGCCCACTAAGGAGAGAGGCACTGCCTTGTTTCCCTTTGTATTTCAAGGAGCTTCTCG,-0.0441 ratio
CCTGTTCTGTAAAAGTGTTTGGATTGAGAGAACACGTACAAAATGACAGGATAATAGCAGGTAGATAATATTCATCTTTTTCTCCCAGGTTAATGTAATCTGGGACCTGATTTTACAAGATTTTATAGGCCATGTTTTACATACGTTGATTTTATCTTAATATGAATAAAACTTAACATATGTGGAGACATTA,-0.021 ratio

# Sample 3
# Target: Centromere-binding protein 1, full length, N-terminal tag (CBF1, Saccharomyces cerevisiae, UniProt P17106, residues 1-351)
# Chain of UniProt P17106 (whole entry, looked up): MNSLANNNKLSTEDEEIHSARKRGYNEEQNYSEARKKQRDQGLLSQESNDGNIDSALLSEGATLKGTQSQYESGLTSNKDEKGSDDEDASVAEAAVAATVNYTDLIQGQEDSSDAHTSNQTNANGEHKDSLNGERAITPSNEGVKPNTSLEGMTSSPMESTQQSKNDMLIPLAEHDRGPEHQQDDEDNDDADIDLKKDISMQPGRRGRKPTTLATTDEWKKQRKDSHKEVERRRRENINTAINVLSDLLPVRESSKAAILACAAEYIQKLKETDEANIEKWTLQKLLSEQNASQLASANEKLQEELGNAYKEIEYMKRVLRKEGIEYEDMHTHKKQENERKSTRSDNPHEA
# Technique: protein-binding microarray
# Form: double-stranded DNA, one strand shown
# Medium: in vitro
# Tested at: 0.8 µM
# Notes: whole 60-bp probe, no competitor
# Reading: higher = stronger binding
# Constant ends, left off below: … GTCTTGATTCGCTTGACGCTGCTG
Oligonucleotide,fluorescence intensity
TGTACGAAGCTATATGGTCAGATTATAGTAGTTAGG,558 a.u.
CTATTCACAACGTATTTCATGACATACTTATTGTTC,550 a.u.
GAAATACTTTTAAAAGACCTGATGATGATAAATTAG,629 a.u.
CTAGATTGCTTTTTTCACATGACCATATTATATTTC,2380 a.u.
CTAGTTAGTGTAAGCGGTCAGGTGTAAGTAGTATTC,1250 a.u.
TGTACGAAGCTATTACACGTGATTATAGTAGTTAGG,7920 a.u.
CCTAACTACTATAGGCGCGTGAGATAGCTTCGTACA,636 a.u.
CCTAACTACTATAAGTTAGTCACATAGCTTCGTACA,543 a.u.
CTATAGCGCTTTGATCACGTGCTCGGGCGCTATTTC,33200 a.u.
GAAAATGTTGTTCGTGGTGAAATAGAAACTTTTTAG,545 a.u.
CTAGGGGTGGTTCAGGTGGTTATTTGGTAATAATTC,531 a.u.
GAAAGTCTCCATCCCTTCGTCACCTTCGGCTGTTAG,530 a.u.
CTAGAAATTTCACGTGATGTAATCTGATGAAGGTTC,10700 a.u.
CTAAACCGCCTTTGTCACCCCATCCGGTAAGTATTC,497 a.u.
CTAATAGTTACTGATCAGGTGATGAGACGATAATTC,4350 a.u.
CTATAGGAAAAGCCCGACGTCATTATAGCTATGTTC,504 a.u.
CTATTAAAACATTGTGACCCAAATATCACAAATTTC,667 a.u.

# Sample 4
# Target: PABPC1L2, full length, GST fusion (mouse, UniProt A0ABA7IW68)
# Technique: RNAcompete
# Form: RNA
# Medium: in vitro
# Tested at: 20 nM
# Notes: 7-mer, probes averaged, single round
# Reference: mean of 7-mers
# Reading: higher = stronger binding
# Construct (chain): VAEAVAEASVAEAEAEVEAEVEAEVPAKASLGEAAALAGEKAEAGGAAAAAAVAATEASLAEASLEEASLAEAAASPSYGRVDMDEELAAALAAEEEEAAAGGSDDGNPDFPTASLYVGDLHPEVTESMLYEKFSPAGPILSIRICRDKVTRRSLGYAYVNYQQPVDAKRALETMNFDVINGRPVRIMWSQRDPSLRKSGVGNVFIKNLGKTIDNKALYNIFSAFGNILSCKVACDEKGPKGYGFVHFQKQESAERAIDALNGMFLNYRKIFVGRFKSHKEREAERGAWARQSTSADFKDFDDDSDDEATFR
Oligonucleotide,7-mer Z-score
UAUUCCC,-0.494
GUCGAUU,-0.36
GCGUGGG,0.198
UGUCAGG,-0.0391
UACGGCC,-0.155
CAUCAUG,-0.264
AGUGACA,0.191
AAGCACG,0.138
AAGUUUC,-0.166
CAAAGCG,0.204
GUCAGGC,-0.0844
CCUGAAU,-0.371
UUUGUUG,-0.498
AAGACUG,0.178
CAGCGCG,-0.213
GAGCUGC,-0.208
CGCUACC,-0.304
GAAGCGA,0.0515
UUCGUUU,-0.634
AUUAUGG,0.0569
GAGUCGC,-0.3
UUCCACC,-0.295
CUCAACG,-0.278
UUGCCUU,-0.255
GAACACA,0.191

# Sample 5
# Target: Histone acetyltransferase KAT6A, both winged helices, GST fusion (KAT6A, Homo sapiens, UniProt Q92794, residues 1-181)
# Technique: protein binding microarray
# Form: double-stranded DNA, one strand shown
# Medium: in vitro
# Tested at: not given
# Notes: 8-mer, flanks averaged, mean of 2 arrays, mostly near background
# Reference: not given
# Reading: higher = stronger binding
# Construct (chain): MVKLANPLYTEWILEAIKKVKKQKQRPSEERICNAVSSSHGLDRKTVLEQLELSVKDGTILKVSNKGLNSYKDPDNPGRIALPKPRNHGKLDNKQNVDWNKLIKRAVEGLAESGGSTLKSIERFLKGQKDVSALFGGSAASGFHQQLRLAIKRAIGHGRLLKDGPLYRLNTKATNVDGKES
Oligonucleotide,E-score
CGTGGAAG,0.138
CCGAGCGA,0.215
AATTAAAG,-0.215
AGCGGGGG,0.016
AGCTTGAC,-0.113
CTTGGACC,-0.0141
ACACATAT,-0.158
ATAACGTG,0.0144
CATATACA,-0.0648
CCATTTCA,-0.228
TATGTCCA,-0.0244
CGGGATCC,0.25
GTCCCTAA,-0.096
AAGGGTAG,-0.0175
AGAAAATA,-0.162
CCCGACAG,0.125
AAACGATC,-0.132
TCTGTCAA,-0.0389
CAGGAACC,-0.0887
CCTCGGCG,0.289
TACGCGCA,0.342
TGCCCGAA,-0.146
GATATCGA,-0.141
TCGGAACA,0.109
CAAGCAAG,-0.0749

# A few entries again (sample 5):
Oligonucleotide,E-score
TACGCGCA,0.342
TGCCCGAA,-0.146
GATATCGA,-0.141
TCGGAACA,0.109
CAAGCAAG,-0.0749
